Measurements gathered from unrelated publications.
Each numbered part is a random draw from the data of one study; scales do not carry over between parts.
UniProt P15735, sequence (whole entry, looked up): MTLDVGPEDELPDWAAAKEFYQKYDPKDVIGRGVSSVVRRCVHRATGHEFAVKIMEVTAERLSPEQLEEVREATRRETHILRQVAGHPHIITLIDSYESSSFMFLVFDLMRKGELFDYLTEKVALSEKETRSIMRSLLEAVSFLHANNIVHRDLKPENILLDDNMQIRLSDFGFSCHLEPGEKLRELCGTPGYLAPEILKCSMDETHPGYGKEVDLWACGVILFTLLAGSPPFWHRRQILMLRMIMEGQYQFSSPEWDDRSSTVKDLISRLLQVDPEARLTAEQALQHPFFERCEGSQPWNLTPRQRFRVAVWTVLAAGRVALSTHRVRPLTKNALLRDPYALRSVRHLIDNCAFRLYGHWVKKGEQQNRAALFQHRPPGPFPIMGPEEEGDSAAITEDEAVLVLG
UniProt Q9UF33, sequence (whole entry, looked up): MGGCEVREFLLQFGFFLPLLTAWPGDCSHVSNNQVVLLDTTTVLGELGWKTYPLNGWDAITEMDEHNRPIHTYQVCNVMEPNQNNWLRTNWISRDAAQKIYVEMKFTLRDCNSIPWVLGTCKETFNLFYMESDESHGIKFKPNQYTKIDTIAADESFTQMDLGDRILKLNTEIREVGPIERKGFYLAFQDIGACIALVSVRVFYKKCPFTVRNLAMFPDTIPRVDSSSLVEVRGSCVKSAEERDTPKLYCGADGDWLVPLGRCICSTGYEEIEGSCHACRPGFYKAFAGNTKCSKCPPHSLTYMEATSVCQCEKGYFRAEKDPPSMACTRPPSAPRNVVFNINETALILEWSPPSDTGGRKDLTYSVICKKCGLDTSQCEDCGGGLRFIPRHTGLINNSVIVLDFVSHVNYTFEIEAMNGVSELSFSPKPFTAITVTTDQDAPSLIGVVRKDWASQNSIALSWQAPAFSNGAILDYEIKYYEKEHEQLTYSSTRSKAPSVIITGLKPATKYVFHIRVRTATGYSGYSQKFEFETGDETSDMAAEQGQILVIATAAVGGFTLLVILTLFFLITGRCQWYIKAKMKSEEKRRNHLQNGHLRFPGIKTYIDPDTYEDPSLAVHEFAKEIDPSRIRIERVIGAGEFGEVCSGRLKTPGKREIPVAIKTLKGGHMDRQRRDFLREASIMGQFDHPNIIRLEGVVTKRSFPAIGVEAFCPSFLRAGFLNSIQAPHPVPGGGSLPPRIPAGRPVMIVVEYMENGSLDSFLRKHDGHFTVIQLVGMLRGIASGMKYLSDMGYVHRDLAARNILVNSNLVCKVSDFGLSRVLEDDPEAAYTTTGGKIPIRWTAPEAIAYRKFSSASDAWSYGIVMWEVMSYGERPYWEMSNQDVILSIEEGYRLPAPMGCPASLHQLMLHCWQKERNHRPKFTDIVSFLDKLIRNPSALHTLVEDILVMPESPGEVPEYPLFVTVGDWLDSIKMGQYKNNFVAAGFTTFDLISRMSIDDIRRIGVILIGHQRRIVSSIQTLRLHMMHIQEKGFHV
UniProt Q8WXR4, sequence (whole entry, looked up): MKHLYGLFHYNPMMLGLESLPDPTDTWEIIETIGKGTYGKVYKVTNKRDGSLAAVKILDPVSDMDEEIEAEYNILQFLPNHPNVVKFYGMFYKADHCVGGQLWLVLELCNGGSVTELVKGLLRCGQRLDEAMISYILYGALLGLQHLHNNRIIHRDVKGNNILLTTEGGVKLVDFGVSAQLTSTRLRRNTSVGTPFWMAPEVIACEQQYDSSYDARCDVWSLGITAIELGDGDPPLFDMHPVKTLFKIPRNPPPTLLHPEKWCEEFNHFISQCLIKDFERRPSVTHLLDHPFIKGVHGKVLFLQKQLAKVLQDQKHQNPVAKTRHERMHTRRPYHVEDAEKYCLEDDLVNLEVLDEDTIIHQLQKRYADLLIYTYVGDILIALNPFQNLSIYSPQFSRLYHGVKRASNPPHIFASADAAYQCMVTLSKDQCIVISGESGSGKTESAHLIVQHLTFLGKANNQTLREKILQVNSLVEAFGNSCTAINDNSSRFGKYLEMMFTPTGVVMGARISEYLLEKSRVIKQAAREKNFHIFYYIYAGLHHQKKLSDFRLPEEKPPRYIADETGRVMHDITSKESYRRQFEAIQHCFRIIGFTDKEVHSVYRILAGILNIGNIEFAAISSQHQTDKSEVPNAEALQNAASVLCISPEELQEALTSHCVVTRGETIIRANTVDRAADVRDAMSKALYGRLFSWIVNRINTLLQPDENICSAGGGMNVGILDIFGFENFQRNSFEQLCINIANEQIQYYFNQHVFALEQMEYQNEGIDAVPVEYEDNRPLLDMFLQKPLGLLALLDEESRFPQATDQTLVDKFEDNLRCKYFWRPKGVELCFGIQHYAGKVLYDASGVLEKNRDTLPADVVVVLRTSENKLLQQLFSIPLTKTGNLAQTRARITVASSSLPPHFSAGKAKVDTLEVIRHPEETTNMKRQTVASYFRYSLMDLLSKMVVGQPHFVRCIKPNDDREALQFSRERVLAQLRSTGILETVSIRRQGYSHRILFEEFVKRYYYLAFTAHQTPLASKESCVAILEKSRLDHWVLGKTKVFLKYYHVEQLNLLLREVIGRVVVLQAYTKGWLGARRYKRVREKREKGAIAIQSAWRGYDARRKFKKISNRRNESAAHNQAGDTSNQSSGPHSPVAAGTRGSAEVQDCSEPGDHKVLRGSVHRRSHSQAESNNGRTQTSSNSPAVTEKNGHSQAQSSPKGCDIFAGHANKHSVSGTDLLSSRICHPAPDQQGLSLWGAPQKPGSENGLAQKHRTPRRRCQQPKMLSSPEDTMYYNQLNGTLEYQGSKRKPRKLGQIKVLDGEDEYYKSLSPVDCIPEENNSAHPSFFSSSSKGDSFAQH
UniProt P35626, sequence (whole entry, looked up): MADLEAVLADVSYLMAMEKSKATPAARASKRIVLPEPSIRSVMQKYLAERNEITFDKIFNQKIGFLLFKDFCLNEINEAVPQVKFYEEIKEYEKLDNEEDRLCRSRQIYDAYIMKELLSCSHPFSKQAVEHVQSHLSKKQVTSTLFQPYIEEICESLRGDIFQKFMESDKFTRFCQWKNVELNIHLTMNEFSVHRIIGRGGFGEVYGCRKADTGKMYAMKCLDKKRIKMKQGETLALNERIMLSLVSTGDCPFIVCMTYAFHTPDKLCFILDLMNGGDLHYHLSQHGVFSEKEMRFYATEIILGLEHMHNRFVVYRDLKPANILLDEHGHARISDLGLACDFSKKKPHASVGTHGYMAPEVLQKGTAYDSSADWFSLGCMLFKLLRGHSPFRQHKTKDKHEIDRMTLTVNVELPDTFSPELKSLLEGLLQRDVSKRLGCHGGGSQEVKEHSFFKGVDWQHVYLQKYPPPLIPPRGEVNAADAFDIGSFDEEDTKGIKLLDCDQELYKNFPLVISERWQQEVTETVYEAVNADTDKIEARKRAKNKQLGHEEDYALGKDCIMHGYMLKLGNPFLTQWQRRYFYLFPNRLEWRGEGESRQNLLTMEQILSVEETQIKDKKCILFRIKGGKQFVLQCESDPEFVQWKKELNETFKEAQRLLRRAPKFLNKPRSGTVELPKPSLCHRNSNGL
UniProt Q8NEV4, sequence (whole entry, looked up): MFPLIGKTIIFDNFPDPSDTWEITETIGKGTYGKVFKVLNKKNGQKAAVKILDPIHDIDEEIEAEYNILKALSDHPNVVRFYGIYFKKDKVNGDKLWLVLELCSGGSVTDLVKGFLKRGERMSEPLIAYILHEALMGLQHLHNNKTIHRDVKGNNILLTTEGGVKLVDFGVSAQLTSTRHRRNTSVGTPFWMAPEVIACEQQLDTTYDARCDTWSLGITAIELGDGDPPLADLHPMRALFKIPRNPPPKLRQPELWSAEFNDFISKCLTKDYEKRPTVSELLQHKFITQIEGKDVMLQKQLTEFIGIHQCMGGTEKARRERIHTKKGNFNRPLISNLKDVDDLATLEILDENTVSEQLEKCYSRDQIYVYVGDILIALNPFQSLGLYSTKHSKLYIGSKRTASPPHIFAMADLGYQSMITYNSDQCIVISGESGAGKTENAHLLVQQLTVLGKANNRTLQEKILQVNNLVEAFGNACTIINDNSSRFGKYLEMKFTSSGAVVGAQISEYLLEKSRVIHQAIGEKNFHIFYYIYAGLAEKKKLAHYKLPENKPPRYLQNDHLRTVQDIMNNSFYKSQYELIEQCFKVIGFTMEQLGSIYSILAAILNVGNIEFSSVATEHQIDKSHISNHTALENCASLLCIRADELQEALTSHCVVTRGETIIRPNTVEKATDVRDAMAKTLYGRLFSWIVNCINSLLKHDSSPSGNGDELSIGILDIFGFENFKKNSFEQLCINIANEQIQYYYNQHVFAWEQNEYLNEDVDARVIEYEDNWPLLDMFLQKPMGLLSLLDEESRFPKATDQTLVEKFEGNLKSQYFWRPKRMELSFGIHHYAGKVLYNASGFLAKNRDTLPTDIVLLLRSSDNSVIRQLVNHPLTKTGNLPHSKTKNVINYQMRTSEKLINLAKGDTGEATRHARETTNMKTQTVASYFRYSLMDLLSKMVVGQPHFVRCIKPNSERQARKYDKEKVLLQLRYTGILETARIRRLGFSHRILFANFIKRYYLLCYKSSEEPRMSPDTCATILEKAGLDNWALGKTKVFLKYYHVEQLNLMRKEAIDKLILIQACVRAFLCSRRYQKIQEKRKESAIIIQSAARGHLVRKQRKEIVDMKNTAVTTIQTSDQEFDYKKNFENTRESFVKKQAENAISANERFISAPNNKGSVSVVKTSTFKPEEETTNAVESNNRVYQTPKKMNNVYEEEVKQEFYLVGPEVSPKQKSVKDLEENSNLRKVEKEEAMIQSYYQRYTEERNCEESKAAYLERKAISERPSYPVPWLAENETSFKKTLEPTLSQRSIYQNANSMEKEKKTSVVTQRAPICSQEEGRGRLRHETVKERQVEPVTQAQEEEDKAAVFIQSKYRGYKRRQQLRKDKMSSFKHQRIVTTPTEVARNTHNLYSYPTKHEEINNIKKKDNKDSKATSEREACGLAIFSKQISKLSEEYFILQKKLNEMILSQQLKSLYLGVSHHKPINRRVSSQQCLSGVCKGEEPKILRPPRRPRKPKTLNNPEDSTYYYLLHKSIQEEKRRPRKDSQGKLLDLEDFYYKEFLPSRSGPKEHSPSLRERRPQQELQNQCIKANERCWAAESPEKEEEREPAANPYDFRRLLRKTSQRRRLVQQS

Series 1 — species: human; medium: microsomes or S9; tested at: 2 µM; time: 0.5 h
| SMILES | remaining compound [%] |
| --- | --- |
| COc1ccc(Cn2nc(-c3ccc(O)cc3)n(-c3ccc(OCCN(C)C)cc3)c2=O)cc1 | 65.1 |
| O[C@H]1Cc2ccccc2[C@H]1Nc1nc(-c2ccccn2)nc2c1CCNC2 | > 100 |
| CC(C)c1cc(C(N)=O)c(NC(=O)/C(=C/c2ccccc2)c2ccccc2)s1 | 55.6 |
| Cc1cccc(S(=O)(=O)NCCCC(C)C(=O)O)c1Br (stereo not drawn) | > 100 |
| O=S(=O)(Cc1cc(F)ccc1F)NCCn1ccc(-c2ccsc2)n1 | 1.62 |
| COc1ccc([C@H](O)[C@H]2OCCN(Cc3ccccc3)C2=O)cc1 | 11.3 |
| N#Cc1cc(NC(CCO)C2CCOCC2)nc2ccc(Cl)cc12 (stereo not drawn) | 26.2 |
| Cn1c(Cc2ccccc2)c(-c2ccccc2)c(=O)n1C | 72.2 |
| Cc1[nH]ncc1CCCNCc1cnc2c(c1)c(C#N)cn2C(C)(C)C | 66.9 |

Series 2 — read-out: AlphaScreen signal; technique: AlphaScreen counter screen; medium: His6 peptide without bromodomain; tested at: 50 µM; setting: assay interference check
| Structure (SMILES) | inhibition [%] |
| --- | --- |
| Nc1nccc(-c2c(-c3ccc(F)cc3)ncn2C2CCNCC2)n1 | 19.1 |
| O=C(O)c1cc(N(Cc2ccccc2O)Cc2cc(O)ccc2O)ccc1O | 19.5 |
| COCCCOc1ccnc(C[S+]([O-])c2nc3ccccc3[nH]2)c1C (stereo not drawn) | 27.9 |
| Cc1cc(Nc2nc(N[C@@H](C)c3ncc(F)cn3)ncc2Cl)n[nH]1 | 6.4 |
| O=c1ccc2ccc(O)c(O)c2o1 | 10.9 |
| COc1ccc(Nc2ncc(F)c(Nc3ccc(OC)cc3)n2)cc1 | 17.7 |
| Cn1cc(C=C(C#N)c2nc3ccccc3s2)cn1 | 11.8 |

Series 3 — read-out: cell-free assay; technique: competition with immobilised ligand; tested at: 1 µM
Structure (SMILES): O=C(NC[C@@H]1[C@H]2CN(C(=O)OCc3cc(C(F)(F)F)cc(C(F)(F)F)c3)C[C@@H]12)c1ccc2[nH]nnc2c1
| target | remaining binding |
| --- | --- |
| MARK2 (Homo sapiens, UniProt Q7KZI7) | 89% |
| STK33 (Homo sapiens, UniProt Q9BYT3) | 84% |
| Tyrosine-protein kinase JAK2, JH1 (JAK2, Homo sapiens, UniProt O60674) | 100% |
| Myosin-IIIa (MYO3A, Homo sapiens, UniProt Q8NEV4) | 98% |
| EPHA6 (Homo sapiens, UniProt Q9UF33) | 69% |
| PHKG2 (Homo sapiens, UniProt P15735) | 100% |
| TIE1 (Homo sapiens, UniProt P35590) | 77% |
| BTK (Homo sapiens, UniProt Q06187) | 100% |
| Myosin-IIIb (MYO3B, Homo sapiens, UniProt Q8WXR4) | 100% |
| CDK3 (Homo sapiens, UniProt Q00526) | 94% |
| GRK3 (Homo sapiens, UniProt P35626) | 90% |
| FYN (Homo sapiens, UniProt P06241) | 85% |
| Tyrosine-protein kinase ABL1, non-phosphorylated (ABL1, Homo sapiens, UniProt P00519, Q252H) | 78% |
| NUAK2 (Homo sapiens, UniProt Q9H093) | 88% |

Series 4 — read-out: enzyme activity; action: inhibitor; tested at: 0.5 µM; reference: control
Target: Dual specificity tyrosine-phosphorylation-regulated kinase 2 (DYRK2, Homo sapiens, UniProt Q92630)
Construct (Q92630 1-601): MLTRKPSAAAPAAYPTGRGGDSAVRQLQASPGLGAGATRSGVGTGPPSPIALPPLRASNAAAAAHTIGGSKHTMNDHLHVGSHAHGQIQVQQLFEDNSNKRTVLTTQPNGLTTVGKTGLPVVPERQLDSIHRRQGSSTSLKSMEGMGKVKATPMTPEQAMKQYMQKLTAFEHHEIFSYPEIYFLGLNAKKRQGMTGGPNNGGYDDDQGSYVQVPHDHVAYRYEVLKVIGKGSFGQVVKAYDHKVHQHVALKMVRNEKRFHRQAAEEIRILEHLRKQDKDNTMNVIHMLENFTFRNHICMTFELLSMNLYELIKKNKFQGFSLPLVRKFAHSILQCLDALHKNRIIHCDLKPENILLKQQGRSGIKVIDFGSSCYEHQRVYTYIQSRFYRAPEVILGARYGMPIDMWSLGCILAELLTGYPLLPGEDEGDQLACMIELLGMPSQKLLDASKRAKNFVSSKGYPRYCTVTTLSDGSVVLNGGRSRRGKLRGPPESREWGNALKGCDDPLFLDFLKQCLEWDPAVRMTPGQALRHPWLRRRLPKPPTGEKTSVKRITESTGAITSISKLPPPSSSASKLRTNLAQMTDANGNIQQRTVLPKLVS
| Compound | remaining activity |
| --- | --- |
| O=c1c(-c2ccc(F)cc2)c(-c2ccncc2)[nH]n1-c1ccc(Cl)cc1 | 86.9% |
| CNc1cc2c(Nc3cccc(Br)c3)ncnc2cn1 | 89.9% |
| NC(=O)c1cccc(-c2cc(Nc3ccc(OC(F)(F)F)cc3)ncn2)c1 | 78.7% |
| O=C(O)/C=C/c1cc(Br)c(Br)c(Br)c1Br | 79.4% |
| CC(C)n1cnc2c(Nc3cccc(Cl)c3)nc(NCCO)nc21 | 93.9% |
| CCN(CC)CCCCN1c2ccccc2Oc2ccc(Cl)cc21 | 101% |

For quick reference, copied from above (series 3):
| target | remaining binding |
| --- | --- |
| Tyrosine-protein kinase ABL1, non-phosphorylated (ABL1, Homo sapiens, UniProt P00519, Q252H) | 78% |
| STK33 (Homo sapiens, UniProt Q9BYT3) | 84% |
| MARK2 (Homo sapiens, UniProt Q7KZI7) | 89% |
